Assay results gathered from unrelated publications.
B1: Stat3 127-722 (Mus musculus, UniProt P42227-2); pY705, C48 adducts; sequence looked up; chain GQANHPTAAVVTEKQQMLEQHLQDVRKRVQDLEQKMKVVENLQDDFDFNYKTLKSQGDMQDLNGNNQSVTRQKMQQLEQMLTALDQMRRSIVSELAGLLSAMEYVQKTLTDEELADWKRRQQIACIGGPPNICLDRLENWITSLAESQLQTRQQIKKLEELQQKVSYKGDPIVQHRPMLEERIVELFRNLMKSAFVVERQPCMPMHPDRPLVIKTGVQFTTKVRLLVKFPELNYQLKIKVCIDKDSGDVAALRGSRKFNILGTNTKVMNMEESNNGSLSAEFKHLTLREQRCGNGGRANCDASLIVTEELHLITFETEVYHQGLKIDLETHSLPVVVISNICQMPNAWASILWYNMLTNNPKNVNFFTKPPIGTWDQVAEVLSWQFSSTTKRGLSIEQLTTLAEKLLGPGVNYSGCQITWAKFCKENMAGKGFSFWVWLDNIIDLVKKYILALWNEGYIMGFISKERERAILSTKPPGTFLLRFSESSKEGGVTFTWVEKDISGKTQIQSVEPYTKQQLNNMSFAEIIMGYKIMDATNILVSPLVYLYPDIPKEEAFGKYCRPESQEHPEADPGSAAPYLKTKFICVTPFIDAVWK
B2: htrA PDZ deleted 94-342 (Synechocystis sp. PCC 6803, UniProt P73354); sequence looked up; chain SIAPANESLATNLQSRLSPREPSNFVVDVVESTGPAVVRINAQKTVKSQVPQAFNDPFLQRFFGSQMPPMPNERVQRGTGSGFIVSNDGKIFTNAHVVDGADEVTVTLKDGRSFPGRVMGSDPSTDVAVVKIEAGDLPTVALGDSDHLQVGEWAIAIGNPLGLDNTVTTGILSATGRRSADIGVPDKRVEFIQTDAAINPGNSGGPLLNADGQVIGMNTAIIQNAQGIGFAIPINKAQEIAQQLIATGK
B3: UGT1A9 (Homo sapiens, UniProt O60656); chain GKLLVVPMDGSHWFTMRSVVEKLILRGHEVVVVMPEVSWQLGRSLNCTVKTYSTSYTLEDLDREFKAFAHAQWKAQVRSIYSLLMGSYNDIFDLFFSNCRSLFKDKKLVEYLKESSFDAVFLDPFDNCGLIVAKYFSLPSVVFARGILCHYLEEGAQCPAPLSYVPRILLGFSDAMTFKERVRNHIMHLEEHLLCHRFFKNALEIASEILQTPVTEYDLYSHTSIWLLRTDFVLDYPKPVMPNMIFIGGINCHQGKPLPMEFEAYINASGEHGIVVFSLGSMVSEIPEKKAMAIADALGKIPQTVLWRYTGTRPSNLANNTILVKWLPQNDLLGHPMTRAFITHAGSHGVYESICNGVPMVMMPLFGDQMDNAKRMETKGAGVTLNVLEMTSEDLENALKAVINDKSYKENIMRLSSLHKDRPVEPLDLAVFWVEFVMRHKGAPHLRPAAHDLTWYQYHSLDVIGFLLAVVLTVAFITFKCCAYGYRKCLGKKGRVKKAHKSKTH
B4: MvINS 1-204 R77C/C109A/C127A (Mycobacterium vanbaalenii, UniProt A1T557); Cys77-Cys117 disulfide; chain MRLRISEAVVLFLLGAVAALIGDHSHVVTGTTVYHTDAVPFVWSSPFWFPILVGAATASLAELRLHLPAPRDGVTACQALGGVAAVVGTYVTTALVHAFPVVPVTALVAAAAAITWCVLGDGPGAAAGVVIAVIGPAVEIALVQLGVFAYHPDSDGLFGVAPFLAPLYFAFGVVAALLGELAVARRPQLGPPVCDTVSRGPGAG
B5: PRDX3 62-end 62-256 (Homo sapiens, UniProt P30048); Cys-Sp/Cys-Sr intersubunit disulfides; sequence looked up; chain APAVTQHAPYFKGTAVVNGEFKDLSLDDFKGKYLVLFFYPLDFTFVCPTEIVAFSDKANEFHDVNCEVVAVSVDSHFSHLAWINTPRKNGGLGHMNIALLSDLTKQISRDYGVLLEGSGLALRGLFIIDPNGVIKHLSVNDLPVGRSVEETLRLVKAFQYVETHGEVCPANWTPDSPTIKPSPAASKEYFQKVNQ
B6: NR3C1/ESR1 and 1-527 (Homo sapiens); sequence looked up; chain MDSKESLTPGREENPSSVLAQERGDVMDFYKTLRGGATVKVSASSPSLAVASQSDSKQRRLLVDFPKGSVSNAQQPDLSKAVSLSMGLYMGETETKVMGNDLGFPQQGQISLSSGETDLKLLEESIANLNRSTSVPENPKSSASTAVSAAPTEKEFPKTHSDVSSEQQHLKGQTGTNGGNVKLYTTDQSTFDILQDLEFSSGSPGKETNESPWRSDLLIDENCLLSPLAGEDDSFLLEGNSNEDCKPLILPDTKPKIKDNGDLVLSSPSNVTLPQVKTEKEDFIELCTPGVIKQEKLGTVYCQASFPGANIIGNKMSAISVHGVSTSGGQMYHYDMNTASLSQQQDQKPIFNVIPPIPVGSENWNRCQGSGDDNLTSLGTLNFPGRTVFSNGYSSPSMRPDVSSPPSSSSTATTGPPPKLCLVCSDEASGCHYGVLTCGSCKVFFKRAVEGQHNYLCAGRNDCIIDKIRRKNCPACRYRKCLQAGMNLEARKTKKKIKGIQQATTGVSQETSENPGNKTIVPATLPQTADQMVSALLDAEPPILYSEYDPTRPFSEASMMGLLTNLADRELVHMINWAKRVPGFVDLTLHDQVHLLECAWLEILMIGLVWRSMEHPGKLLFAPNLLLDRNQGKCVEGMVEIFDMLLATSSRFRMMNLQGEEFVCLKSIILLNSGVYTFLSSTLKSLEEKDHIHRVLDKITDTLIHLMAKAGLTLQQQHQRLAQLLLILSHIRHMSNKGMEHLYSMKCKNVVPLYDLLLEMLDAHRLHAPTSRGGASVEETDQSHLATAGSTSSHSLQKYYITGEAEGFPATV

| Substance | target or system | assay | system | conditions | endpoint | value |
| --- | --- | --- | --- | --- | --- | --- |
| B1 (Stat3 127-722) | itself | SEC | – | phosphorylated, with and without C48 | subunits per oligomer | 2 |
| HIR2 fragment (Saccharomyces cerevisiae) (sequence not shown) | itself | sedimentation equilibrium | – | pH 8.0, 4 °C, NaCl 300 mM | subunits per oligomer | 2 |
| B2 (htrA PDZ deleted 94-342) | itself | SEC | – | not very stable trimers | subunits per oligomer | 3 |
| B3 (UGT1A9) | O=C(c1ccc(OCCN2CCCCC2)cc1)c1c(-c2ccc(O)cc2)sc2cc(O)ccc12 | steady-state kinetics | – | pH 7.4, 37 °C | Km | 1.93 µM |
| CRYAA R49C (Homo sapiens) (sequence not shown) | itself | non-reducing SDS-PAGE | – | – | subunits per oligomer | 2 |
| B4 (MvINS 1-204 R77C/C109A/C127A) | itself | cross-linking | – | – | subunits per oligomer | 3 |
| CRYAA R21L (Homo sapiens) (sequence not shown) | itself | non-reducing SDS-PAGE | – | – | subunits per oligomer | 2 |
| B5 (PRDX3 62-end 62-256) | itself | SEC | – | oligomer to dimers, together with: H2O2 | subunits per oligomer | 2 |
| BACH1 fragment (Homo sapiens) (sequence not shown) | itself | SEC-MALS | – | – | subunits per oligomer | 2 |
| Grifin (Mus musculus, UniProt Q9D1U0) | itself | SEC | lysate | not purified | subunits per oligomer | 2 |
| B6 (NR3C1/ESR1 and 1-527) | itself | sedimentation velocity AUC | – | pH 8.0, 4 °C, NaCl 100 mM, together with: E2 | subunits per oligomer | 2 |
| SKA1/SKA2/SKA3 S34D (sequence not shown) | itself | SEC, velocity sedimentation | – | – | subunits per oligomer | 2 |
| gsnl-1 fragment (Caenorhabditis elegans) (sequence not shown) | itself | SEC | – | – | subunits per oligomer | 2 |

A few entries again:
| Substance | target or system | assay | system | conditions | endpoint | value |
| --- | --- | --- | --- | --- | --- | --- |
| B6 (NR3C1/ESR1 and 1-527) | itself | sedimentation velocity AUC | – | pH 8.0, 4 °C, NaCl 100 mM, together with: E2 | subunits per oligomer | 2 |
